Measured values from different studies.
Every numbered part comes from another study and shows a few of its results, in no order. Substitutions count along the parent as printed.

Set 1
Target: Fragile X messenger ribonucleoprotein 1, C-terminal low-complexity region (Fmr1, Mus musculus, UniProt P35922)
Method: RNA Bind-n-Seq
Form: RNA
Matrix: in vitro
Concentration: 200 nM
Setting: whole 134-nt RNA, ends assumed
Added: 150 mM KCl
Relative to: input library
Reading: higher = stronger binding
All sequences stand within: GGGAGUUCUACAGUCCGACGAUC … UGGAAUUCUCGGGUGUCAAGG
| Strand | log2 enrichment |
| --- | --- |
| CAAGUCCUGUGCUACACAUCGUAUGUACCGAAUCGGCCCCGGCCCCGGCCCCGGGGAAAGUAUUAUGUUACGCCGUUCGGAUCUGCACUU | -0.603 |
| AGUCCUGUGCUACACAUCGUAUGUACCGAAUCGGGAAAAAGGGAAAGGGUUUUUGGGAAAGUAUUAUGUUACGCCGUUCGGAUCUGCACU | -0.128 |
| CAAGUCCUGUGCUACACAUCGUAUGUACCGAAUCGGGAAAGGGAAAGGGUUUGGGAAAGUAUUAUGUUACGCCGUUCGGAUCUGCACUUC | 0.631 |
| UAACUUUAGAGGAGGAUCUGAUGGAUAUGGCAGUGGACGUGGAUUUGGGGAUGGCUAUAAUGGGUACGGAGGAGGACCUGGAGGUGGCAA | 0.177 |
| UGGCCCUGGUGGCAUGCGGGGAGGAAGAGGUGGCCUCAGGGAUCGUGGUGGUCCCGGUGGAAUGUUCAGAGGUGGCCGUGGUGGAGACAG | -0.196 |
| UCCUGUGCUACACAUCGUAUGUACCGAAUCGGGGAAAAAAGGGGAAAAAAGGAAAAAAGGAAAGUAUUAUGUUACGCCGUUCGGAUCUGC | -0.264 |
| CCUGUGCUACACAUCGUAUGUACCGAAUCGGGUUUUUUUGGGUUUUUUUGGGAAAAAGGGAAAGUAUUAUGUUACGCCGUUCGGAUCUGC | -0.758 |
| UCCUAGUAUUCUGGCCGUUCAGAGAUCUGCAAUCCUCAAGAAGCAGCAACAGCAGCAGCAGCAACAACAACAUCAAGCCUCAUCUAAUAG | 0.458 |

Set 2
Target: Sal-like protein 4, full length isoform A (SALL4, Homo sapiens, UniProt Q9UJQ4, residues 1-1053)
Chain of UniProt Q9UJQ4 (whole entry, looked up): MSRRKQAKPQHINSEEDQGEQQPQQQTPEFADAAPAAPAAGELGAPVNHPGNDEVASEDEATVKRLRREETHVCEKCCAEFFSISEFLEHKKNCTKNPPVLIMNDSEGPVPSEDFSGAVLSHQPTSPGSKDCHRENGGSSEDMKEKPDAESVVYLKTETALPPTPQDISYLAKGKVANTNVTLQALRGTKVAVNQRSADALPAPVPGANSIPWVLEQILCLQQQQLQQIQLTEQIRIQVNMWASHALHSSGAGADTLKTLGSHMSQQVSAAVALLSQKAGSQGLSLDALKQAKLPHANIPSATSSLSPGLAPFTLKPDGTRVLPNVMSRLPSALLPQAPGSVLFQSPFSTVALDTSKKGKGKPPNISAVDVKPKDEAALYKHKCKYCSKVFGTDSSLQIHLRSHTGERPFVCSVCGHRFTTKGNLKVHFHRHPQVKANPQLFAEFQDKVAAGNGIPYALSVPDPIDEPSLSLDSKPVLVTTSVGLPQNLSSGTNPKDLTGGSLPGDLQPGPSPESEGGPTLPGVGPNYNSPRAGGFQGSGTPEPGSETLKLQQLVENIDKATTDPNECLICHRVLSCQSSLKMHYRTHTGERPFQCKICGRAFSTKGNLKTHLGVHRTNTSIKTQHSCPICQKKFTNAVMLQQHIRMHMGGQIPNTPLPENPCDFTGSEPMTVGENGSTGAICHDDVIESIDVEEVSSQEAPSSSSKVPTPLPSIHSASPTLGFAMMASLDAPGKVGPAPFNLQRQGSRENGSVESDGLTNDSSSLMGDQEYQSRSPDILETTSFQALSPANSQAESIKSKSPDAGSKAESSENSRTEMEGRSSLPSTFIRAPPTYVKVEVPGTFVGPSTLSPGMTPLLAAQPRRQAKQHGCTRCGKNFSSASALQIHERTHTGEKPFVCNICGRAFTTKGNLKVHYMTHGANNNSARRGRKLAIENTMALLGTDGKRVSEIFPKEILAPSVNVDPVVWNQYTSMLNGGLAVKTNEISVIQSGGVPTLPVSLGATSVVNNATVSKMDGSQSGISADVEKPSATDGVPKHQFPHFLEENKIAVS
Method: universal PBM
Form: double-stranded DNA, one strand shown
Matrix: in vitro
Concentration: 600 nM
Setting: 8-mer, flanks averaged, mean of replicates
Reading: higher = stronger binding
| Strand | E-score |
| --- | --- |
| CTATACTC | 0.0635 |
| AGCAGAAG | -0.0671 |
| ATAGAGCA | 0.191 |
| AAGTATTC | 0.264 |
| ATAGGTCC | 0.0201 |
| AGTTCCTC | -0.129 |

Set 3
Target: CCND2, cyclin fold, Cln2 fusion (human)
Method: yeast growth competition, sequencing
Matrix: yeast
Setting: weak parent motif
Relative to: not given
Reading: higher = stronger binding
Starting sequence: GMNC docking peptide (human); KNAKRNLSSEFAN; partner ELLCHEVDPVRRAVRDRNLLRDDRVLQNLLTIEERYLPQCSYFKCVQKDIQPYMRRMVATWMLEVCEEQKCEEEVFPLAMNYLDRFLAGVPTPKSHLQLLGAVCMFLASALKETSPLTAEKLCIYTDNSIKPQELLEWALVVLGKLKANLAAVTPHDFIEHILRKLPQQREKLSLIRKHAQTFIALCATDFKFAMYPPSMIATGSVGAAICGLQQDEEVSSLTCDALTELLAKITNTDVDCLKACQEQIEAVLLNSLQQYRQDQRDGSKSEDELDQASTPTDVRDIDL
| Change | normalised enrichment score |
| --- | --- |
| A12P | 0.105 |
| F11P | -0.439 |
| K4G | 0.26 |
| N2M | 0.0837 |

Mixed results
| Molecule | target | test | test system | conditions | scale | measurement | value |
| --- | --- | --- | --- | --- | --- | --- | --- |
| PhoQ, residues 284 288 289 292 302 303 SLKLQV | PhoP, residues 12 14 15 18 19 SPWRL (Escherichia coli, UniProt P23836) | Sort-seq, refers to: YFP reporter | E. coli | PhoQ-PhoP variant library, added: 10 µM Mg2+ | relative to: high Mg2+ state, higher = stronger signaling | fold induction | 14.9 |

Excerpt of the above (set 1):
| Strand | log2 enrichment |
| --- | --- |
| UCCUGUGCUACACAUCGUAUGUACCGAAUCGGGGAAAAAAGGGGAAAAAAGGAAAAAAGGAAAGUAUUAUGUUACGCCGUUCGGAUCUGC | -0.264 |
| UGGCCCUGGUGGCAUGCGGGGAGGAAGAGGUGGCCUCAGGGAUCGUGGUGGUCCCGGUGGAAUGUUCAGAGGUGGCCGUGGUGGAGACAG | -0.196 |
